Experimental data gathered from unrelated publications.
Compare with care: the assays were run in different laboratories. Several values in a cell are separate wells, animals, samples, runs or records. Numbers after ± are the reported error.

| Structure (SMILES) | assay | test system | setting | how to read | measurement | result |
| --- | --- | --- | --- | --- | --- | --- |
| CSCC[C@H](NC(=O)CNC(=O)[C@H](CCCCN)NC(=O)[C@H](CC(C)C)NC(=O)[C@@H]1CCCN1C(=O)[C@H](CO)NC(=O)[C@H](Cc1c[nH]cn1)NC(=O)[C@H](Cc1c[nH]c2ccccc12)NC(=O)[C@H](CCCNC(=N)N)NC(=O)[C@H](CC(C)C)NC(=O)[C@H](CCCNC(=N)N)NC(=O)[C@H](Cc1c[nH]c2ccccc12)NC(=O)[C@H](CS)NC(=O)CCCCCNC(=O)CN1CCN(CC(=O)O)CCN(CC(=O)O)CCN(CC(=O)O)CC1)C(=O)O [copper-64 labelled] | PET imaging | BALB/c nude mice, liver | intravenous, dose not given, 30 h, Huh-7 tumour-bearing |  | tissue uptake | 6.18 ± 0.24 %ID/g |
| CCc1nnc(-c2c(OC)cc(-c3cnc4cc(-c5cnn(C)c5)ccn34)cc2OC)o1 | metabolic stability | rat, liver microsomes |  |  | microsomal CLint | < 9.6 µL/min/mg |
| CC(CCC(=O)NCC(=O)O)C1CCC2C3CCC4CC(OC5OC(C(=O)O)C(O)C(O)C5O)CCC4(C)C3CC(O)C12C (centres unmarked) |  | men, C/C genotype, plasma | dose not given, geometric mean |  | glucuronide to parent ratio | 2.77 |
| C=Cc1c(C)c2cc3nc(c(CC(=O)[O-])c4[n-]c(cc5nc(cc1[n-]2)C(C)=C5CC)c(C)c4C(=O)[O-])C(CCC(=O)[O-])C3C.[Cu+2].[Na+].[Na+].[Na+] (centres unmarked) |  | Wistar rat, female | oral, 1000 mg/kg daily, 28 days |  | serum ALT | 36.8 ± 7.57 U/L |
| COc1cnc2cccc(N3CCc4c(cc(Cn5ccnc5)cc4-c4cn(C)nc4C(F)(F)F)C3=O)c2c1 |  | BALB/c nude mice, MV4-11 xenograft | intraperitoneal, 100 mg/kg, day 14 |  | body weight | 22.3 g and 22.8 g and 23.6 g and 24.2 g and 22.5 g and 20.6 g and 23.2 g and 25.7 g |
| CCCCC[C@@H]1OC(=O)[C@@H](C)N(C)C(=O)[C@H](CCCCC)N(C)C(=O)[C@@H](C)N(C)C(=O)[C@H](CCCCC)N(C)C(=O)[C@@H](C)N(C)C(=O)[C@H](CCCCC)N(C)C(=O)[C@@H](C)N(C)C1=O | PAMPA, HPLC-UV |  | 500 µM, pH 7.4 |  | log Papp | -5.42 ± 0.04 |
| CN1Cc2cc(Cl)ccc2-n2c(nnc2C2CCN(c3cccc(F)n3)CC2)C1 |  | Sprague-Dawley rats male, pituitary | intravenous, 0.03 mg/kg, 30 min |  | concentration | 11.9 ± 1.21 ng/mL |
| CC[C@H](C)[C@H](NC(=O)[C@H](CCCCN)NC(=O)CNC(=O)[C@H](CC(C)C)NC(=O)[C@H](Cc1ccccc1)NC(=O)[C@H](CCCCN)NC(=O)[C@H](CO)NC(=O)[C@H](Cc1ccccc1)NC(=O)[C@H](Cc1c[nH]c2ccccc12)NC(=O)[C@H](CCC(N)=O)NC(=O)[C@@H](NC(=O)[C@H](Cc1ccccc1)NC(=O)CCCCCNC(=O)CN1CCN(CC(=O)O)CCN(CC(=O)O)CCN(CC(=O)O)CC1)C(C)C)C(=O)N[C@@H](CCC(=O)O)C(=O)N1CCC[C@H]1C(=O)N[C@@H](CC(=O)O)C(=O)N[C@H](C(=O)N[C@@H](CO)C(=O)N[C@@H](CCC(N)=O)C(=O)N[C@H](C(=O)N[C@@H](CCC(N)=O)C(=O)N[C@@H](CC(=O)O)C(=O)N1CCC[C@H]1C(=O)N[C@@H](CC(N)=O)C(=O)N[C@@H](CC(=O)O)C(=O)N[C@@H](CCC(N)=O)C(=O)N[C@@H](Cc1ccc(O)cc1)C(=O)N[C@@H](CCC(=O)O)C(=O)N1CCC[C@H]1C(=O)N[C@@H](Cc1ccccc1)C(=O)O)C(C)C)C(C)C [copper-64 labelled] |  | C57BL/6 mice, spleen | with: LPS 0.1 mg/kg intratracheal |  | tissue uptake | 0.76 ± 0.1 %ID/g |
| [2H]C([2H])([18F])[C@]([2H])(N)C(=O)O | PET | athymic nude mouse, blood |  |  | half-life | 43.8 s |
| C[C@H](O)[C@@H](NC(=O)[C@H]1CCCN1C(=O)[C@@H](CCCCN)NC(=O)[C@@H](CO)NC(=O)[C@@H](Cc1ccc(O)cc1)NC(=O)[C@@H](CC(N)=O)NC(=O)CCOCCOCCOCCNC(=O)CN1CCN(CC(=O)O)CCN(CC(=O)O)CCN(CC(=O)O)CC1)C(=O)N[C@H](CC(=O)O)C(=O)N[C@H](CCCNC(=N)N)C(=O)N[C@H](CCC(N)=O)C(=O)N[C@H](Cc1ccc(O)cc1)C(=O)N[C@H](Cc1c[nH]cn1)C(=O)N[C@H](Cc1ccccc1)C(N)=O [copper-64 labelled] | ex vivo gamma counting | C57BL/6J mouse, normal, small intestine | intravenous, 1.85 MBq, 80 min |  | tissue uptake | 0.82 ± 0.1 %ID/g |
| Cc1sc2c(c1C)C(c1ccc(-c3cccc(NC(=O)c4cnn5cccnc45)c3)cc1)=N[C@@H](CC(N)=O)c1nnc(C)n1-2 |  | mouse | oral |  | oral bioavailability | < 5% |
| CCOc1ccccc1-n1c(CN2CCNCC2)nc2ccccc2c1=O |  | C57BL/6 mouse, male, plasma | oral, 6 mg/kg |  | oral bioavailability | 27.6% |
| CC(C)[C@H](NC(=O)[C@@H](NC(=O)[C@H](CCCNC(=N)N)NC(=O)[C@H](CCCNC(=N)N)NC(=O)[C@H](CCCNC(=N)N)NC(=O)[C@H](CCC(N)=O)NC(=O)[C@H](CCCNC(=N)N)NC(=O)[C@H](CCCNC(=N)N)NC(=O)[C@H](CCCCN)NC(=O)[C@H](CCCCN)NC(=O)[C@H](CCCNC(=N)N)NC(=O)CN)[C@@H](C)O)C(=O)N[C@H](C(=O)N[C@@H](CO)C(=O)N1CCC[C@H]1C(=O)O)[C@@H](C)O |  | ICR mice, female, heart | intranasal, 5 mg/kg daily, 4 weeks |  | organ weight | 0.168 ± 0.049 g |
| [2H]C([2H])([2H])C1(C([2H])([2H])[2H])NC(=O)N(c2ccc(F)c(C(C)(F)F)c2)C1=O |  | Sprague-Dawley rat, male and female | oral, single dose |  | MTD | ~100 mg/kg |
| N#[11C]c1ccc(-c2csc(NN=C3CCCC3)n2)cc1 |  | C57BL/6 mice, male, bladder | intravenous, 3 MBq, 30 min |  | radioactivity uptake | 11.5 ± 2.79 %ID/g |
| CSCC[C@H](N)C(=O)N[C@@H](C)C(=O)N[C@@H](Cc1c[nH]c2ccccc12)C(=O)N[C@@H](Cc1c[nH]cn1)C(=O)N[C@@H](CC(=O)O)C(=O)N[C@@H](CC(=O)O)C(=O)N[C@@H](CCC(=O)O)C(=O)N[C@@H](CCC(=O)O)C(=O)N[C@@H](Cc1ccccc1)C(=O)N[C@@H](C)C(=O)N[C@@H](CCCNC(=N)N)C(=O)N[C@@H](CCCNC(=N)N)C(=O)N[C@@H](CCCNC(=N)N)C(=O)N[C@@H](CCCNC(=N)N)C(=O)NCCCCCC(=O)NCCCCC(NC(=O)CCCCCNC(=O)[C@H](CCCNC(=N)N)NC(=O)[C@H](CCCNC(=N)N)NC(=O)[C@H](CCCNC(=N)N)NC(=O)[C@H](CCCNC(=N)N)NC(=O)[C@H](C)NC(=O)[C@H](Cc1ccccc1)NC(=O)[C@H](CCC(=O)O)NC(=O)[C@H](CCC(=O)O)NC(=O)[C@H](CC(=O)O)NC(=O)[C@H](CC(=O)O)NC(=O)[C@H](Cc1c[nH]cn1)NC(=O)[C@H](Cc1c[nH]c2ccccc12)NC(=O)[C@H](C)NC(=O)[C@@H](N)CCSC)C(=O)NCCCCC(NC(=O)C(CCCCNC(=O)CCCCCNC(=O)[C@H](CCCNC(=N)N)NC(=O)[C@H](CCCNC(=N)N)NC(=O)[C@H](CCCNC(=N)N)NC(=O)[C@H](CCCNC(=N)N)NC(=O)[C@H](C)NC(=O)[C@H](Cc1ccccc1)NC(=O)[C@H](CCC(=O)O)NC(=O)[C@H](CCC(=O)O)NC(=O)[C@H](CC(=O)O)NC(=O)[C@H](CC(=O)O)NC(=O)[C@H](Cc1c[nH]cn1)NC(=O)[C@H](Cc1c[nH]c2ccccc12)NC(=O)[C@H](C)NC(=O)[C@@H](N)CCSC)NC(=O)CCCCCNC(=O)[C@H](CCCNC(=N)N)NC(=O)[C@H](CCCNC(=N)N)NC(=O)[C@H](CCCNC(=N)N)NC(=O)[C@H](CCCNC(=N)N)NC(=O)[C@H](C)NC(=O)[C@H](Cc1ccccc1)NC(=O)[C@H](CCC(=O)O)NC(=O)[C@H](CCC(=O)O)NC(=O)[C@H](CC(=O)O)NC(=O)[C@H](CC(=O)O)NC(=O)[C@H](Cc1c[nH]cn1)NC(=O)[C@H](Cc1c[nH]c2ccccc12)NC(=O)[C@H](C)NC(=O)[C@@H](N)CCSC)C(N)=O (some centres unmarked) |  | C57BL/6 mouse female, heart | dose not given, 3 h | relative to: total | mean tissue distribution | 0.87% |
| CC(C)[C@@H]1NC(=O)CNC(=O)[C@H](CC(N)=O)NC(=O)[C@H](CCCNC(=N)N)NC(=O)[C@H](Cc2ccc(O)cc2)NC(=O)[C@H](C(C)C)NC(=O)[C@@H](NC(=O)[C@@H](NC(=O)[C@H](CC(N)=O)NC(=O)[C@H](Cc2c[nH]c3ccccc23)NC(=O)[C@H](C)NC(=O)[C@H](Cc2ccccc2)NC(=O)CNC(=O)[C@H](CCCCN)NC(=O)[C@H](Cc2ccccc2)NC(=O)[C@H](Cc2ccccc2)NC(=O)[C@H](CCCCN)NC(=O)OCC2c3ccccc3-c3ccccc32)C(C)C)CSSC[C@@H](C(=O)N[C@@H](Cc2c[nH]cn2)C(=O)N[C@@H](CCCNC(=N)N)C(=O)N[C@@H](CCCNC(=N)N)C(=O)N[C@@H](C)C(=O)N[C@@H](CC(N)=O)C(N)=O)NC(=O)[C@H](C(C)C)NC(=O)[C@H](CCCNC(=N)N)NC1=O | HPLC | trypsin buffer | 2.00 h, 37 °C, with: trypsin 1 % w/v |  | peptide remaining | 50% and 51.8% and 55% |
| CC[C@H](C)[C@H](NC(=O)[C@H](CCCNC(=N)N)NC(=O)[C@H](CCCCN)NC(=O)[C@H](Cc1ccc(O)cc1)NC(=O)[C@H](CC(=O)O)NC(=O)[C@H](C)NC(=O)CNC(=O)CCOCCOCCOCCNC(=O)CN1CCN(CC(=O)O)CCN(CC(=O)O)CCN(CC(=O)O)CC1)C(=O)N[C@H](C(=O)N[C@H](C(=O)N[C@@H](CCCCN)C(=O)N[C@H](C(=O)N[C@@H](CC(N)=O)C(N)=O)C(C)C)C(C)C)[C@@H](C)O [copper-64 labelled] | ex vivo gamma counting | C57BL/6J male mice, B16-F10 tumour, spleen | intravenous, 1.85 MBq, 100 min |  | tissue uptake | 0.431 ± 0.047 %ID/g |
| CC(C)(CCCC/C=C/CCCCCC(C)(C)C(=O)O)C(=O)O |  | beagle dog, both sexes | oral, dose not given, 3 h |  | plasma concentration | 17700 ng/mL |
| O=C1NC2(CC2)COc2ncc(F)cc2[C@H]2COCCN2c2ccn3ncc1c3n2 |  | Sprague-Dawley rat, male, blood | oral, 20 mg/kg/day, 4 weeks, end of recovery, subacute toxicity |  | lymphocyte percentage | 81.7 ± 5.9% |

A few entries again:
| Structure (SMILES) | assay | test system | setting | how to read | measurement | result |
| --- | --- | --- | --- | --- | --- | --- |
| CC(C)[C@@H]1NC(=O)CNC(=O)[C@H](CC(N)=O)NC(=O)[C@H](CCCNC(=N)N)NC(=O)[C@H](Cc2ccc(O)cc2)NC(=O)[C@H](C(C)C)NC(=O)[C@@H](NC(=O)[C@@H](NC(=O)[C@H](CC(N)=O)NC(=O)[C@H](Cc2c[nH]c3ccccc23)NC(=O)[C@H](C)NC(=O)[C@H](Cc2ccccc2)NC(=O)CNC(=O)[C@H](CCCCN)NC(=O)[C@H](Cc2ccccc2)NC(=O)[C@H](Cc2ccccc2)NC(=O)[C@H](CCCCN)NC(=O)OCC2c3ccccc3-c3ccccc32)C(C)C)CSSC[C@@H](C(=O)N[C@@H](Cc2c[nH]cn2)C(=O)N[C@@H](CCCNC(=N)N)C(=O)N[C@@H](CCCNC(=N)N)C(=O)N[C@@H](C)C(=O)N[C@@H](CC(N)=O)C(N)=O)NC(=O)[C@H](C(C)C)NC(=O)[C@H](CCCNC(=N)N)NC1=O | HPLC | trypsin buffer | 2.00 h, 37 °C, with: trypsin 1 % w/v |  | peptide remaining | 50% and 51.8% and 55% |
| CC[C@H](C)[C@H](NC(=O)[C@H](CCCNC(=N)N)NC(=O)[C@H](CCCCN)NC(=O)[C@H](Cc1ccc(O)cc1)NC(=O)[C@H](CC(=O)O)NC(=O)[C@H](C)NC(=O)CNC(=O)CCOCCOCCOCCNC(=O)CN1CCN(CC(=O)O)CCN(CC(=O)O)CCN(CC(=O)O)CC1)C(=O)N[C@H](C(=O)N[C@H](C(=O)N[C@@H](CCCCN)C(=O)N[C@H](C(=O)N[C@@H](CC(N)=O)C(N)=O)C(C)C)C(C)C)[C@@H](C)O [copper-64 labelled] | ex vivo gamma counting | C57BL/6J male mice, B16-F10 tumour, spleen | intravenous, 1.85 MBq, 100 min |  | tissue uptake | 0.431 ± 0.047 %ID/g |
| CC(C)(CCCC/C=C/CCCCCC(C)(C)C(=O)O)C(=O)O |  | beagle dog, both sexes | oral, dose not given, 3 h |  | plasma concentration | 17700 ng/mL |
